Experimental data from different studies.
Lines come from different studies, so protocols differ. Numbers after ± are the reported error.
Technique: steady-state kinetics
B1: protein (Streptomyces coelicolor, UniProt P16544); chain MATQDSEVALVTGATSGIGLEIARRLGKEGLRVFVCARGEEGLRTTLKELREAGVEADGRTCDVRSVPEIEALVAAVVERYGPVDVLVNNAGRPGGGATAELADELWLDVVETNLTGVFRVTKQVLKAGGMLERGTGRIVNIASTGGKQGVVHAAPYSASKHGVVGFTKALGLELARTGITVNAVCPGFVETPMAASVREHYSDIWEVSTEEAFDRITARVPIGRYVQPSEVAEMVAYLIGPGAAAVTAQALNVCGGLGNY
B2: LYS1 C205S/K99M (Saccharomyces cerevisiae, UniProt P38998); chain MAAVTLHLRAETKPLEARAALTPTTVKKLIAKGFKIYVEDSPQSTFNINEYRQAGAIIVPAGSWKTAPRDRIIIGLKEMPETDTFPLVHEHIQFAHCYMDQAGWQNVLMRFIKGHGTLYDLEFLENDQGRRVAAFGFYAGFAGAALGVRDWAFKQTHSDDEDLPAVSPYPNEKALVKDVTKDYKEALATGARKPTVLIIGALGRSGSGAIDLLHKVGIPDANILKWDIKETSRGGPFDEIPQADIFINCIYLSKPIAPFTNMEKLNNPNRRLRTVVDVSADTTNPHNPIPIYTVATVFNKPTVLVPTTAGPKLSVISIDHLPSLLPREASEFFSHDLLPSLELLPQRKTAPVWVRAKKLFDRHCARVKRSSRL
B3: Saccharopine reductase C154S (Saccharomyces cerevisiae, UniProt P38999); chain MGKNVLLLGSGFVAQPVIDTLAANDDINVTVACRTLANAQALAKPSGSKAISLDVTDDSALDKVLADNDVVISLIPYTFHPNVVKSAIRTKTDVVTSSYISPALRELEPEIVKAGITVMNEIGLDPGIDHLYAVKTIDEVHRAGGKLKSFLSYSGGLPAPEDSDNPLGYKFSWSSRGVLLALRNSAKYWKDGKIETVSSEDLMATAKPYFIYPGYAFVCYPNRDSTLFKDLYHIPEAETVIRGTLRYQGFPEFVKALVDMGMLKDDANEIFSKPIAWNEALKQYLGAKSTSKEDLIASIDSKATWKDDEDRERILSGFAWLGLFSDAKITPRGNALDTLCARLEELMQYEDNERDMVVLQHKFGIEWADGTTETRTSTLVDYGKVGGYSSMAATVGYPVAIATKFVLDGTIKGPGLLAPYSPEINDPIMKELKDKYGIYLKEKTVA
B4: Nudt8 (Mus musculus, UniProt Q9CR24); chain MLPDGLSAEDEQRCRQLLARTTARLRSRPAAAAVLVPLCLVRGVPALLYTLRSSRLVGRHKGEVSFPGGKCDPDDQDVIHTALRETQEELGLEVPKEHVWGVLQPVYDREKATIVPVLANVGPLDLQSLRPNLEEVDEVFEMSLAHLLQTQNQGYTHFCQGGHFSYTLPVFLHGPHRVWGLTAVITELTLKLLAPGFYQPSLAVPELPRG
B5: PRP43 F357A (Saccharomyces cerevisiae, UniProt P53131); chain MGSKRRFSSEHPDPVETSIPEQAAEIAEELSKQHPLPSEEPLVHHDAGEFKGLQRHHTSAEEAQKLEDGKINPFTGREFTPKYVDILKIRRELPVHAQRDEFLKLYQNNQIMVFVGETGSGKTTQIPQFVLFDEMPHLENTQVACTQPRRVAAMSVAQRVAEEMDVKLGEEVGYSIRFENKTSNKTILKYMTDGMLLREAMEDHDLSRYSCIILDEAHERTLATDILMGLLKQVVKRRPDLKIIIMSATLDAEKFQRYFNDAPLLAVPGRTYPVELYYTPEFQRDYLDSAIRTVLQIHATEEAGDILLFLTGEDEIEDAVRKISLEGDQLVREEGCGPLSVYPLYGSLPPHQQQRIAEPAPESHNGRPGRKVVISTNIAETSLTIDGIVYVVDPGFSKQKVYNPRIRVESLLVSPISKASAQQRAGRAGRTRPGKCFRLYTEEAFQKELIEQSYPEILRSNLSSTVLELKKLGIDDLVHFDFMDPPAPETMMRALEELNYLACLDDEGNLTPLGRLASQFPLDPMLAVMLIGSFEFQCSQEILTIVAMLSVPNVFIRPTKDKKRADDAKNIFAHPDGDHITLLNVYHAFKSDEAYEYGIHKWCRDHYLNYRSLSAADNIRSQLERLMNRYNLELNTTDYESPKYFDNIRKALASGFFMQVAKKRSGAKGYITVKDNQDVLIHPSTVLGHDAEWVIYNEFVLTSKNYIRTVTSVRPEWLIEIAPAYYDLSNFQKGDVKLSLERIKEKVDRLNELKQGKNKKKSKHSKK
B6: enzyme (Thermus thermophilus, UniProt Q5SJ64); chain MRNQELARIFEEIGLMSEFLGDNPFRVRAYHQAARTLYDLDTPIEEIAEKGKEALMELPGVGPDLAEKILEFLRTGKVRKHEELSRKVPRGVLEVMEVPGVGPKTARLLYEGLGIDSLEKLKAALDRGDLTRLKGFGPKRAERIREGLALAQAAGKRRPLGAVLSLARSLLEAIRALPGVERAELCGSARRYKDTVGDLDFLVASREGERAVEGFVRLPQVKEVYAKGKERATVFLKNGLQVDLRVVPPESYGAGLQYLTGSKAHSIRLRALAQEKGLKLSEYGVFRGEKRIAGETEEEVYAALGLPWIPPPLREDQGEVEAALEGRLPKLLELPQVKGDLQVHSTYSDGQNTLEELWEAAKTMGYRYLAVTDHSPAVRVAGGPSPEEALKRVGEIRRFNETHGPPYLLAGAEVDIHPDGTLDYPDWVLRELDLVLVSVHSRFNLPKADQTKRLLKALENPFVHVLAHPTARLLGRRAPIEADWEAVFQKAKEKGVAVEIDGYYDRMDLPDDLARMAYGMGLWISLSTDAHQTDHLRFMELAVGTAQRAWIGPERVLNTLDYEDLLSWLKARRGV
B7: enzyme A178R/D177A/M179S/P184R (Levilactobacillus brevis, UniProt Q03Q85); chain MKVTVVGCTHAGTFAIKQILAEHPDAEVTVYERNDVISFLSCGIALYLGGKVADPQGLFYSSPEELQKLGANVQMNHNVLAIDPDQKTVTVEDLTNHAQTTESYDKLVMTSGSWPIVPKIPGIDSDRVKLCKNWAHAQALIEDAKEAKRITVIGAGYIGAELAEAYSTTGHDVTLIARSARVMRKYFDADFTDVIEQDYRDHGVQLALGETVESFTDSATGLTIKTDKNSYETDLAILCIGFRPNTDLLKGKVDMAPNGAIITDDYMRSSNPDIFAAGDSAAVHYNPTHQNAYIPLATNAVRQGILVGKNLVKPTVKYMGTQSSSGLALYDRTIVSTGLTLAAAKQQGLNAEQVIVEDNYRPEFMPSTEPVLMSLVFDPDTHRILGGALMSKYDVSQSANTLSVCIQNENTIDDLAMVDMLFQPNFDRPFNYLNILAQAAQAKVAQSVNA

B1 (protein)
kcat (O[C@@H]1CCCc2ccccc21; pH 7.4, phosphate 400 mM, NADPH 250 µM printed, with: NADP+, reverse reaction): 0.06 ± 0.004 s⁻¹

B2 (LYS1 C205S/K99M)
kcat (O=C(O)CCC(=O)C(=O)O; pH 7.2, 25 °C, with: NADH and Lys): 68 ± 4 s⁻¹

pyc (Rhizobium etli, UniProt Q2K340)
kcat (Nc1ncnc2c1ncn2[C@@H]1O[C@H](COP(=O)(O)OP(=O)(O)OP(=O)(O)O)[C@@H](O)[C@H]1O; pH 7.8, 30 °C, no pyruvate, with: NaHCO3 20 mM, acetyl CoA 0.25 mM, Mg2+ 5 mM): 0.0617 ± 0.0002 s⁻¹

B3 (Saccharopine reductase C154S)
kcat (N[C@@H](CCCCN[C@@H](CCC(=O)O)C(=O)O)C(=O)O; pH 9, 25 °C, with: saccharopine): 0.12 ± 0.03 s⁻¹

alanine aminopeptidase (Neisseria meningitidis, UniProt Q9JYV4)
kcat (NC(=O)Cc1cc(=O)oc2cc(NC(=O)[C@@H](N)Cc3ccc(Cl)cc3)ccc12; pH 7.5, 37 °C): 5.05 ± 0.11 s⁻¹

nahG (Pseudomonas putida, UniProt P23262)
kcat (Cc1cc2nc3c(=O)[nH]c(=O)nc-3n(C[C@H](O)[C@H](O)[C@H](O)COP(=O)(O)OP(=O)(O)OC[C@H]3O[C@@H](n4cnc5c(N)ncnc54)[C@H](O)[C@@H]3O)c2cc1C; pH 8.5, 25 °C, apparent, cofactor varied, with: NADH 200 µM, salicylate 150 µM): 16.6 ± 0.3 s⁻¹

B4 (Nudt8)
kcat (CC(=O)SCCNC(=O)CCNC(=O)[C@H](O)C(C)(C)COP(=O)(O)OP(=O)(O)OC[C@H]1O[C@@H](n2cnc3c(N)ncnc32)[C@H](O)[C@@H]1OP(=O)(O)O; pH 8.5, with: 2 mM Mn2+): 1.93 ± 0.167 s⁻¹

B5 (PRP43 F357A)
kcat (Nc1ccn([C@@H]2O[C@H](COP(=O)(O)OP(=O)(O)OP(=O)(O)O)[C@@H](O)[C@H]2O)c(=O)n1; pH 8, KCl 100 mM, without Pfa1, with: polyA 0.2 mM, magnesium acetate 2.5 mM): 12.7 ± 0.5 s⁻¹

B6 (enzyme)
kcat (Nc1nc2c([nH]c(=O)n2[C@H]2C[C@H](O)[C@@H](COP(=O)(O)OP(=O)(O)OP(=O)(O)O)O2)c(=O)[nH]1; pH 7.5, 37 °C): 0.0008 ± 0.0001 s⁻¹

enzyme (Streptomyces purpurascens, UniProt Q54527)
kcat (CC[C@@]1(O)C[C@H](O[C@H]2C[C@H](N)[C@H](O)[C@H](C)O2)c2c(O)c3c(c(O)c2[C@H]1C(=O)O)C(=O)c1cccc(O)c1C3=O; pH 7.5, 30 °C): 9.45 ± 0.383 s⁻¹

B7 (enzyme A178R/D177A/M179S/P184R)
kcat (NC(=O)C1=CN([C@@H]2O[C@H](COP(=O)(O)OP(=O)(O)OC[C@H]3O[C@@H](n4cnc5c(N)ncnc54)[C@H](OP(=O)(O)O)[C@@H]3O)[C@@H](O)[C@H]2O)C=CC1; pH 7.5, 37 °C, per site): 76 ± 12 s⁻¹

ALPL (Homo sapiens, UniProt P05186)
kcat (CC1(C)Oc2ccc(C#N)cc2[C@@H](N2CCCC2=O)[C@@H]1OP(=O)(O)O; pH 7.4): 0.25 s⁻¹

ALDH7A1 (Homo sapiens, UniProt P49419)
kcat (N[C@@H](CCCC=O)C(=O)O; pH 8, with: NAD+ 2.5 mM, pyrophosphate 50 mM): 0.38 ± 0.02 s⁻¹

For quick reference, copied from above:
B7 (enzyme A178R/D177A/M179S/P184R)
kcat (NC(=O)C1=CN([C@@H]2O[C@H](COP(=O)(O)OP(=O)(O)OC[C@H]3O[C@@H](n4cnc5c(N)ncnc54)[C@H](OP(=O)(O)O)[C@@H]3O)[C@@H](O)[C@H]2O)C=CC1; pH 7.5, 37 °C, per site): 76 ± 12 s⁻¹
